Measurements gathered from unrelated publications.
Compare with care: the assays were run in different laboratories. ± marks the error that the study gave.
AKT3: RAC-gamma serine/threonine-protein kinase (AKT3, Homo sapiens, UniProt Q9Y243)
PTH1R: Parathyroid hormone/parathyroid hormone-related peptide receptor (PTH1R, Homo sapiens, UniProt Q03431)
CD38: ADP-ribosyl cyclase/cyclic ADP-ribose hydrolase 1 (CD38, Homo sapiens, UniProt P28907)
CES1: Liver carboxylesterase 1 (CES1, Homo sapiens, UniProt P23141)
T1: RNA aptamer; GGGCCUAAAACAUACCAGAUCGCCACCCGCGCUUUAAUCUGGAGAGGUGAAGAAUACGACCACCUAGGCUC
T2: RNA aptamer; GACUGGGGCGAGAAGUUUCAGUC
T3: RNA riboswitch U41C (Lactobacillus rhamnosus); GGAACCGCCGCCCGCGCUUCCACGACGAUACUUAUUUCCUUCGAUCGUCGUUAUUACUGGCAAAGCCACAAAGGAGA

CNc1ccccc1C(=O)O[C@H]1C[C@H](n2cnc3c(N)ncnc32)O[C@@H]1COP(=O)(O)OP(=O)(O)O
ΔS of ligand binding (Unconventional myosin-Va (Gallus gallus, UniProt Q02440, D297C/G292C/I296C/S293C/V295G); van't Hoff analysis; concentration not given, with: 10 mM Mg2+): 0.8 ± 4.5 cal/(mol·K)

NC(=O)C1CCNC(=O)C(CCCNC(=O)c2cnccn2)NC(=O)C(CC2CCCCC2)NC(=O)C(CC2CC2)NC(=O)C=CC(=O)N1 (stereo not drawn)
enrichment factor (AKT3; DNA-templated library selection; one selection round): 1.5

CSCC[C@H](NC(=O)[C@H](CO)NC(=O)[C@@H](NC(=O)[C@H](CCC(N)=O)NC(C)=O)[C@@H](C)O)C(=O)N[C@H](C(=O)N[C@@H](CC(=O)O)C(=O)N[C@@H](Cc1ccccc1)C(=O)N[C@@H](Cc1ccc(O)cc1)C(=O)N[C@@H](Cc1c[nH]cn1)C(=O)N[C@@H](CO)C(N)=O)[C@@H](C)O
entropic term −TΔS (PCNA (Homo sapiens, UniProt P12004); binding, isothermal titration calorimetry; pH 7.4, 25 °C, 300 mM NaCl, with: p21 peptide): 62 ± 14 kJ/mol

CCCCCCCCCCCCCCCC(=O)OC[C@H](CSC[C@H](NC(=O)COCC(=O)NCCCOCCOCCOCCCNC(=O)CN(CCN(CCN(CC(=O)O)CC(=O)O)CC(=O)O)CC(=O)O)C(=O)NCC(=O)N[C@H](CO)C(=O)NCCCOCCOCCOCCCNC(=O)COCC(N)=O)OC(=O)CCCCCCCCCCCCCCC
Bmax (TLR2 (Homo sapiens, UniProt O60603); europium TRF saturation binding; Capan-1): 951000 AFU

NC(=O)C1CCNC(=O)C(CCCNC(=O)c2cnccn2)NC(=O)C(Cc2ccco2)NC(=O)C(CC=Cc2ccccc2)NC(=O)C=CC(=O)N1 (stereo not drawn)
enrichment factor (AKT3; DNA-templated library selection; one selection round): 1.2

C=C1CC[C@H](OCCCNC(=O)CCOCCOCCOCCOCCOCCOCCOCCOCCOCCOCCOCCOCCOCCOCCOCCOCCOCCOCCOCCOCCOCCOCCOCCOCCOCCOCCOCCOCCOCCOCCOCCOCCOCCOCCOCCOCCNC(=O)CCN2C(=O)CC(SC[C@H](NC(=O)[C@H](Cc3ccccc3)NC(=O)[C@H](CC(N)=O)NC(=O)[C@H](Cc3c[nH]cn3)NC(=O)[C@@H](NC(=O)[C@H](CC(=O)O)NC(=O)[C@H](CCC(N)=O)NC(=O)[C@H](CC(C)C)NC(=O)[C@H](CCCCN)NC(=O)[C@H](CCCCN)NC(=O)[C@H](CCCNC(=N)N)NC(=O)[C@H](CC(C)C)NC(=O)[C@H](Cc3c[nH]c4ccccc34)NC(=O)[C@H](CCC(=O)O)NC(=O)[C@@H](NC(=O)[C@H](CCCNC(=N)N)NC(=O)[C@H](CCC(=O)O)NC(=O)[C@H](CCSC)NC(=O)[C@H](CO)NC(=O)[C@H](CC(N)=O)NC(=O)[C@H](CC(C)C)NC(=O)[C@H](Cc3c[nH]cn3)NC(=O)[C@H](CCCCN)NC(=O)CNC(=O)[C@H](CC(C)C)NC(=O)[C@H](CC(N)=O)NC(=O)[C@H](Cc3c[nH]cn3)NC(=O)[C@H](CCSC)NC(=O)[C@H](CC(C)C)NC(=O)[C@H](CCC(N)=O)NC(=O)[C@@H](NC(=O)[C@H](CCC(=O)O)NC(=O)[C@H](CO)NC(=O)[C@@H](NC(=O)[C@@H](N)CO)C(C)C)[C@@H](C)CC)C(C)C)C(C)C)C(=O)O)C2=O)C/C1=C/C=C1\CCC[C@]2(C)[C@@H]([C@H](C)CCCC(C)(C)O)CC[C@@H]12 (stereo partly drawn)
Emax (PTH1R; calcium signal, agonist, fluorescence): 93.8%

CC(C)CCC[C@@H](C)[C@H]1CC[C@H]2[C@@H]3CC=C4C[C@@H](OS(=O)(=O)O)CC[C@]4(C)[C@H]3CC[C@]12C
maximal fluorescence change (Prothrombin (F2, Homo sapiens, UniProt P00734); intrinsic fluorescence; 800 µM, decrease): 29.6 ± 1.8%

C[C@@]1(O)c2cccc(O)c2C(=O)C2=C(O)[C@]3(O)C(=O)C(C(N)=O)=C(O)C(O)[C@@H]3C[C@@H]21 (stereo partly drawn)
Kd (T1, RNA aptamer; fluorescence titration; pH 7.5, 25 °C, MgCl2 10 mM): 2.77 nM

Nc1ncnc2c1ncn2C1OC(COP(=O)(O)OP(=O)(O)OCC2OC(O)C(O)C2O)C(O)C1O (stereo not drawn)
maximal open probability (TRPM2 (Nematostella vectensis, UniProt A7T1N0, R329A); activator, inside-out patch clamp; Nematostella vectensis TRPM2 R329A; upper estimate, no added PIP2, with: 125 µM Ca2+): ~0.25

CNc1cncc(-c2ccc(OC)c(OC)c2)n1
ligand efficiency (MAPK14 (Homo sapiens, UniProt Q16539); enzyme activity): 0.2

CC(=O)NCCN(CC(=O)NCCN(CC(=O)NCCN(CC(=O)NCCC(N)=O)C(=O)C[C@@H](N)Cc1ccccc1)C(=O)C[C@@H](N)Cc1ccccc1)C(=O)C[C@@H](N)CCCNC(=N)N
non-electrostatic ΔG° (HIV-1 TAR RNA; extrapolated to 1 M KCl): -34.1 ± 0.2 kJ/mol

CC(=O)N[C@H]1[C@@H](OP(=O)(O)O)O[C@H](CO)[C@@H](O)[C@@H]1O
binding (Uncharacterized protein (Trypanosoma brucei brucei, UniProt Q386Q8); surface plasmon resonance; Trypanosoma brucei; concentration not given, ligand alone): no binding

C[C@H](NC(=O)[C@H](Cc1ccccc1)NC(=O)c1ccc(C(F)(F)F)cc1)C(=O)N[C@H](C(=O)N[C@@H](CCCC[N+](C)(C)C)C(=O)N[C@@H](CO)C(N)=O)C1CCCC1
selectivity ratio (E3 SUMO-protein ligase CBX4 (Homo sapiens, UniProt O00257); binding, isothermal titration calorimetry; reference: Cbx7 over E3 SUMO-protein ligase CBX4 Kd): 1.8 fold

CC[C@H](C)[C@H](NC(=O)[C@H](CCC(=O)O)NC(=O)[C@H](CO)NC(=O)[C@@H](NC(=O)[C@@H](N)CO)C(C)C)C(=O)N[C@@H](CCC(N)=O)C(=O)N[C@@H](CC(C)C)C(=O)N[C@@H](CCSC)C(=O)N[C@@H](Cc1c[nH]cn1)C(=O)N[C@@H](CC(N)=O)C(=O)N[C@@H](CC(C)C)C(=O)NCC(=O)N[C@@H](CCCCN)C(=O)N[C@@H](Cc1c[nH]cn1)C(=O)N[C@@H](CC(C)C)C(=O)N[C@@H](CC(N)=O)C(=O)N[C@@H](CO)C(=O)N[C@@H](CCSC)C(=O)N[C@@H](CCC(=O)O)C(=O)N[C@@H](CCCNC(=N)N)C(=O)N[C@H](C(=O)N[C@@H](CCC(=O)O)C(=O)N[C@@H](Cc1c[nH]c2ccccc12)C(=O)N[C@@H](CC(C)C)C(=O)N[C@@H](CCCNC(=N)N)C(=O)N[C@@H](CCCCN)C(=O)N[C@@H](CCCCN)C(=O)N[C@@H](CC(C)C)C(=O)N[C@@H](CCC(N)=O)C(=O)N[C@@H](CC(=O)O)C(=O)N[C@H](C(=O)N[C@@H](Cc1c[nH]cn1)C(=O)N[C@@H](CC(N)=O)C(=O)N[C@@H](Cc1ccccc1)C(=O)N[C@@H](CCCCNC(=O)c1ccc2c(c1)C1(OC2=O)c2ccc(N(C)C)cc2Oc2cc(N(C)C)ccc21)C(N)=O)C(C)C)C(C)C
kon (PTH1R; binding, NanoBRET; pH 6.5, MES buffer): 420000 ± 80000 M⁻¹ s⁻¹

CC(=O)N[C@@H](CC(=O)O)C(=O)N[C@@H](CCC(=O)O)C(=O)N[C@H](C(=O)N[C@@H](CC(=O)O)C(=O)Nc1ccc2c(C)cc(=O)oc2c1)C(C)C
Vmax (Caspase-6 (CASP6, Homo sapiens, UniProt P55212); substrate cleavage, substrate, fluorogenic AMC release; enzyme 0.25 activity units/µL): 456 ± 64.2 RFU/min

CC(C)CC(NC(=O)C(NC(=O)NC(C(=O)O)C(C)C)C1CCNC(=N)N1)C(=O)NCCCNC(C(=O)O)C(OC1OC(CN)C(O)C1O)C1OC(n2ccc(=O)[nH]c2=O)C(O)C1O (stereo not drawn)
ΔH (mraY (Aquifex aeolicus, UniProt O66465, Q305A); ITC; Q305A mutant): -9.8 ± 0.3 kcal/mol

CC(=O)NCCN(CCC(=O)NCCN(CCC(=O)NCCN(CCC(=O)NCCC(N)=O)C(=O)[C@@H](N)Cc1ccccc1)C(=O)[C@@H](N)CCCNC(=N)N)C(=O)[C@@H](N)Cc1ccccc1
non-electrostatic ΔG° (HIV-1 TAR RNA; extrapolated to 1 M KCl): -31 ± 0.3 kJ/mol

Cc1nc(SCC(=O)Nc2ccc(-n3cnnn3)cc2)c2c(C)c(C)sc2n1
remaining activity (CD38; cyclase activity, fluorometric; 50 µM, with: NGD+ substrate; reference: untreated): 53.9 ± 49.7%

CC(C)C[C@H](NC(=O)[C@@H](NC(=O)[C@@H](NC(=O)CN)[C@@H](C)O)C(C)C)C(=O)N1CCC[C@H]1C(=O)N1CCC[C@H]1C(=O)N1CCC[C@H]1C(=O)N1CCC[C@H]1C(=O)N[C@@H](Cc1ccc(O)cc1)C(=O)N[C@@H](CCCNC(=N)N)C(=O)N[C@@H](Cc1c[nH]cn1)C(=O)N[C@@H](CCCNC(=N)N)C(=O)N[C@@H](CC(N)=O)C(=O)O
TΔS (WW domain-containing oxidoreductase, WW1-WW2 tandem domains (WWOX, Homo sapiens, UniProt Q9NZC7); binding, isothermal titration calorimetry; pH 7.8, 20 °C, tandem WW1-WW2 domain): 6.1 ± 0.5 kcal/mol

O=C(Nc1ccc(F)cc1)c1ccc(CNc2ncccn2)cc1
IC50 (CXCR4 (Homo sapiens, UniProt P61073); arrestin recruitment, DiscoverX): inactive

CCCCCCCC(=O)Nc1ccc(C)nc1OC
specific activity (CES1; substrate; 50 µM, pH 8, 37 °C, enzyme purity 25%): 1300 pmol/min/µg

NC[C@@H]1O[C@H](O[C@H]2[C@@H](O)[C@H](O[C@@H]3[C@@H](O)[C@H](N)C[C@H](N)[C@H]3O[C@H]3O[C@H](CN)[C@@H](O)[C@H](O)[C@H]3N)O[C@@H]2CO)[C@H](N)[C@@H](O)[C@@H]1O
melting temperature change (T2, RNA aptamer; UV melting; 1 µM RNA, 10 µM molecule, pH 6.8, NaCl 100 mM): 15.6 °C

NCc1c[nH]c2nc(N)[nH]c(=O)c12
Kd (T3, RNA riboswitch U41C (Lactobacillus rhamnosus); ITC; pH 7.0, NaCl 0.10 M): 1600 nM

N#Cc1cnn2ccc(-c3ccc4c(c3)CN([C@H]3CCC(=O)NC3=O)C4=O)nc12
Dmax (Cereblon/Casein kinase I alpha (CSNK1A1/CRBN, Homo sapiens, UniProt P48729+Q96SW2); protein level, degrader, luciferase; MOLT-4): 93%

Cc1cn([C@@H]2C[C@@H](O)[C@H](COP(=O)(O)O)O2)c(=O)[nH]c1=O
KD ratio (Thymidylate kinase (DTYMK, Homo sapiens, UniProt P23919); binding, fluorescence competition; with: MABA-dTDP; reference: compound over D-dTMP): 22

CC(=O)NCCN(CC(=O)NCCN(CC(=O)NCCN(CC(=O)NCCC(N)=O)C(=O)[C@@H](N)Cc1ccccc1)C(=O)[C@@H](N)CCCNC(=N)N)C(=O)[C@@H](N)Cc1ccccc1
heat capacity change ΔCp (HIV-1 TAR RNA; concentration not given): -2.11 ± 0.21 kJ/mol/K

O=C1CCC(N2C(=O)c3cccc(NCC(=O)N4CCN(c5ccc(Nc6nccc(Oc7ccccc7)n6)cc5)CC4)c3C2=O)C(=O)N1 (stereo not drawn)
degradation (Cereblon/Ikaros (Homo sapiens, UniProt Q13422+Q96SW2); degrader, TMT quantitative proteomics; Mino; 200 nM, 4 h): ~50%

C=C(C)C(=O)Nc1ccc(-c2c(-c3ccc(Oc4cccc(C)n4)cc3)c3c(N)ncnc3n2C)cc1
fold potency loss (FGFR2 (Homo sapiens, UniProt P21802); kinase activity, Caliper; reference: FGFR2 over 5): 40 fold

CC(=O)NCCN(CCC(=O)NCCN(CCC(=O)NCCN(CCC(=O)NCCC(N)=O)C(=O)[C@@H](N)CCCNC(=N)N)C(=O)[C@@H](N)Cc1ccccc1)C(=O)[C@@H](N)Cc1ccccc1
non-electrostatic ΔG° (HIV-1 TAR RNA; extrapolated to 1 M KCl): -32.8 ± 0.6 kJ/mol

CCCCCCCC(=O)Nc1ccc(N(C)C)nc1C
specific activity (CES1; substrate; 50 µM, pH 8, 37 °C, enzyme purity 25%): 54 pmol/min/µg

CC[C@H](C)[C@H](NC(=O)[C@@H](NC(=O)[C@H](Cc1c[nH]c2ccccc12)NC(=O)[C@H](CCC(=O)O)NC(=O)[C@H](CO)NC(=S)Nc1ccc2c(c1)C(=O)OC21c2ccc(O)cc2Oc2cc(O)ccc21)C(C)C)C(=O)N[C@H](C(=O)N[C@@H](C)C(=O)N1CCC[C@H]1C(=O)N[C@@H](Cc1ccccc1)C(=O)N[C@@H](CC(C)C)C(=O)N[C@H](C(=O)N[C@@H](CC(N)=O)C(=O)N[C@@H](CC(C)C)C(=O)O)[C@@H](C)O)C(C)C
fold decrease in affinity (Rgg transcriptional regulator (Streptococcus pneumoniae, UniProt A0A0E7KI02); binding, fluorescence polarization; reference: wild-type peptide): ~4 fold

CNC(=O)c1ccc2c(c1)N(C)S(=O)(=O)c1cnc(SC)nc1-2
kcat (Kinesin-like protein KIF15 (Homo sapiens, UniProt Q9NS87); microtubule-dependent ATPase activity; 5 µM, with: ATP 2 mM, microtubules): 9 ± 1 s^–1

O=C1NC(=O)/C(=C\c2ccc(-c3ccc(C(F)(F)F)cc3)cc2)S1
remaining activity (CD38; enzyme activity, inhibitor, fluorescence; 50 µM): 49.4%
